{"data": "Measurements from different studies", "note": "Compare with care: the assays were run in different laboratories. ± gives the spread as reported."}
{"Structure (SMILES)": "C=C(NC(=O)c1csc(-c2nc3c(cc2O)-c2nc(cs2)C(=O)NC(C(C)O)C(=O)NC(=C(C)OC)c2nc(cs2)C(=O)NC2c4nc(cs4)C(=O)NC(COC(=O)c4c5c6c(cccc6n4O)COC(=O)C(OC4CC(C)(O)C(N(C)C)C(C)O4)C2OC5)c2nc-3cs2)n1)C(N)=O (stereo not shown)", "target or system": "Staphylococcus epidermidis", "system": "methicillin-resistant, 10 isolates", "setting": "pH 7.0", "endpoint": "MIC50", "result": "0.0156 µg/mL"}
{"Structure (SMILES)": "C[n+]1ccc(/C=N/NC(=O)c2ccc3ccc4ccc(C(=O)N/N=C/c5cc[n+](C)c6ccccc56)nc4c3n2)c2ccccc21", "target or system": "myc22 MYC G4-DNA parallel", "assay": "FRET melting", "setting": "1 µM, K1 buffer, DNA 0.2 µM, with: ds26 10 µM", "endpoint": "ΔTm", "result": "24.7 ± 0.4 °C"}
{"Structure (SMILES)": "CN1CCCNC(=O)c2cccc(c2)C(=O)NCCCN(C)CCCNc2cccc3c2C(=O)c2cccc(c2C3=O)NCCC1", "target or system": "SAS", "assay": "RNA-Seq, item: MT-CYB mRNA", "setting": "1 µM, 6 h", "scale": "baseline: untreated cells", "endpoint": "log2 fold change", "result": -2.87}
{"Structure (SMILES)": "CN1CCC[C@]1(C)/C=C/S(=O)(=O)NC(=O)Nc1c2c(cc3c1CCC3)CCC2", "system": "human, whole blood ex vivo", "setting": "100 mg twice daily, day 19, 108 h, multiple ascending dose, with: LPS and ATP", "endpoint": "IL-1β inhibition", "result": "12%"}
{"Structure (SMILES)": "Cn1ncc2cc(-c3cncc(Cl)c3N3CCC4(CCNC4=O)CC3)ccc21", "target or system": "LS174T", "assay": "gene expression, microarray, item: ZFP14 mRNA", "setting": "concentration not given, 4 h", "scale": "baseline: untreated cells", "endpoint": "log2 fold change", "result": 1.88}
{"Structure (SMILES)": "O=C(N/N=C/c1cc[n+](Cc2ccccc2)c2ccccc12)C(=O)N/N=C/c1cc[n+](Cc2ccccc2)c2ccccc12", "target or system": "myc22 MYC G4-DNA parallel", "assay": "FRET melting", "setting": "1 µM, K1 buffer, DNA 0.2 µM", "endpoint": "ΔTm", "result": "5.1 ± 0.2 °C"}
{"Structure (SMILES)": "C=CC(=O)N1[C@@H](c2ccc3c(c2)OCO3)c2[nH]c3ccccc3c2C[C@H]1C(=O)N1CCN(C)CC1", "target or system": "CCNE1 WT-3xFLAG:CDK2 complex", "assay": "co-IP TMT proteomics, item: TICRR", "system": "HEK-293T", "setting": "20 µM, 6 h", "scale": "baseline: DMSO", "endpoint": "log2 fold change", "result": -0.0145}
{"Structure (SMILES)": "C[N+](C)(C)CCO.O=C([O-])C(Cl)Cl", "target or system": "Eclipta prostrata", "setting": "15 mg/mL, 21 days, post-emergence, greenhouse", "endpoint": "herbicidal inhibition", "result": "0%"}
{"Structure (SMILES)": "O=C(N/N=C/c1cc[n+](Cc2ccccc2)c2ccccc12)c1ccc2ccc(C(=O)N/N=C/c3cc[n+](Cc4ccccc4)c4ccccc34)nc2n1", "target or system": "myc22 MYC G4-DNA parallel", "assay": "FRET melting", "setting": "1 µM, K1 buffer, DNA 0.2 µM, with: ds26 10 µM", "endpoint": "ΔTm", "result": "15.7 ± 1.1 °C"}
{"Structure (SMILES)": "COc1ccc(C(=O)CCc2cc(C(CCc3ccc(O)cc3OC)c3ccc(O)cc3)c(O)cc2OC)cc1 (racemic)", "system": "human blood", "setting": "1 µM, with: A23187", "endpoint": "EPA level", "result": "69800 ± 17100 pg/mL"}
{"Structure (SMILES)": "CC[n+]1cccc2cc(/C=N/NC(=O)c3cncc(C(=O)N/N=C/c4ccc5c(ccc[n+]5CC)c4)n3)ccc21", "target or system": "myc22 MYC G4-DNA parallel", "assay": "FRET melting", "setting": "1 µM, K1 buffer, DNA 0.2 µM, with: ds26 10 µM", "endpoint": "ΔTm", "result": "19.3 ± 0.6 °C"}
{"Structure (SMILES)": "C=CC(=O)Nc1cccc(Cn2ncc3cnc(Nc4cnn(CCOC)c4)nc32)c1", "target or system": "PLK4 human", "assay": "binding, KINOMEscan", "setting": "100 nM", "scale": "lower = stronger binding", "endpoint": "percent of control", "result": "11%"}
{"Structure (SMILES)": "Nc1ncc(-c2cc(-c3cnn(CC(F)(F)F)c3)ncc2F)nc1C(=O)NC1CNCC(F)C1 (stereo not shown)", "target or system": "PAK3", "assay": "KINOMEscan", "setting": "1 µM", "scale": "baseline: DMSO control", "endpoint": "remaining binding", "result": "13%"}
{"Structure (SMILES)": "COc1cc(O)ccc1CCC(c1ccc(O)cc1)c1cc2c(c(C)c1O)OC(c1ccc(O)cc1)CC2 (mixture of isomers)", "system": "human blood", "setting": "0.3 µM, with: A23187", "endpoint": "DHA level", "result": "124000 ± 26300 pg/mL"}
{"Structure (SMILES)": "COC1CN([C@H]2CC[C@H]([C@@]3(C)Oc4c(Cl)cc(C(=O)NCc5c(SC)cc(C)[nH]c5=O)c(C)c4O3)CC2)C1", "assay": "RNA-seq, item: MEIOC", "system": "human, whole blood", "setting": "dose not given, 24 h", "scale": "baseline: pretreatment baseline", "endpoint": "log2 fold change", "result": 1.01}
{"Structure (SMILES)": "O=C(N/N=C/c1cc[n+](Cc2ccccc2)c2ccccc12)c1cncc(C(=O)N/N=C/c2cc[n+](Cc3ccccc3)c3ccccc23)n1", "target or system": "myc22 MYC G4-DNA parallel", "assay": "FRET melting", "setting": "1 µM, K1 buffer, DNA 0.2 µM, with: ds26 10 µM", "endpoint": "ΔTm", "result": "17.4 ± 0.3 °C"}
{"Structure (SMILES)": "CNS(=O)(=O)Nc1nccc(Cc2c(C)c3ccc(Oc4ncccc4F)cc3oc2=O)c1F", "target or system": "A673", "assay": "cell viability", "setting": "7 days", "endpoint": "IC50", "result": "> 1000 nM"}
{"Structure (SMILES)": "C[n+]1ccc(/C=N/NC(=O)c2ccc3ccc(C(=O)N/N=C/c4cc[n+](C)c5ccccc45)nc3n2)c2ccccc21", "target or system": "myc22 MYC G4-DNA parallel", "assay": "FRET melting", "setting": "1 µM, K1 buffer, DNA 0.2 µM, with: ds26 10 µM", "endpoint": "ΔTm", "result": "23 ± 0.6 °C"}
{"Structure (SMILES)": "CCN(CC)CC(=O)Nc1cccc(-n2cc(-c3ccc4ccc(-c5cn(-c6cccc(NC(=O)CN(CC)CC)c6)nn5)cc4c3)nn2)c1", "target or system": "RCC4", "assay": "PCR angiogenesis array, item: NRP2", "setting": "5 x IC50, 6 h, normoxia", "scale": "baseline: untreated", "endpoint": "fold regulation", "result": -2.19}
{"Structure (SMILES)": "CC(=O)[O-].O.O.O.O.[Ni+2].[O-]c1ccc(Br)cc1C=NCCN1CCOCC1", "assay": "hydroxyl radical scavenging", "setting": "40 µM", "endpoint": "inhibition", "result": "8.17%"}
{"Structure (SMILES)": "C[n+]1cccc2cc(/C=N/NC(=O)C(=O)N/N=C/c3ccc4c(ccc[n+]4C)c3)ccc21", "target or system": "myc22 MYC G4-DNA parallel", "assay": "FRET melting", "setting": "1 µM, K1 buffer, DNA 0.2 µM", "endpoint": "ΔTm", "result": "2.9 ± 0.2 °C"}
{"Structure (SMILES)": "Cc1ncsc1-c1ccc(C(C)NC(=O)C2CC(O)CN2C(=O)C(NC(=O)CCCCCCCCCCN2CCCC(Nc3ncc(Cl)c(Nc4ccccc4S(=O)(=O)C(C)C)n3)C2)C(C)(C)C)cc1 (stereo not shown)", "target or system": "22Rv1", "assay": "RNA-seq, item: SLC6A19 mRNA", "setting": "concentration not given", "scale": "baseline: DMSO", "endpoint": "log2 fold change", "result": -1.7}
{"note": "For quick reference, copied from above:"}
{"Structure (SMILES)": "CN1CCC[C@]1(C)/C=C/S(=O)(=O)NC(=O)Nc1c2c(cc3c1CCC3)CCC2", "system": "human, whole blood ex vivo", "setting": "100 mg twice daily, day 19, 108 h, multiple ascending dose, with: LPS and ATP", "endpoint": "IL-1β inhibition", "result": "12%"}
{"Structure (SMILES)": "Cn1ncc2cc(-c3cncc(Cl)c3N3CCC4(CCNC4=O)CC3)ccc21", "target or system": "LS174T", "assay": "gene expression, microarray, item: ZFP14 mRNA", "setting": "concentration not given, 4 h", "scale": "baseline: untreated cells", "endpoint": "log2 fold change", "result": 1.88}
